Published values from different studies.
A part holds a random share of what one study measured.

Series 1 — method: protein-binding microarray; form: double-stranded DNA, one strand shown; matrix: in vitro; tested at: 250 nM; setting: 60-bp whole probe; with: salmon DNA 0.4 mg/ml; reference: random background probes; direction: higher = stronger binding; endpoint: log fluorescence
Target: Interferon regulatory factor 5, full length, phosphomimetic (IRF5, Homo sapiens, UniProt Q13568-2, residues 1-514, K96S/S451D/S453D/S456D/S462D)
GCCTAGCACGACGATATCAGTCTCGAAACGTGCTAGGTCTTGATTCGCTTGACGCTGCTG: 2.13 z-score
GCCTAGCACGACGGTTTCGACTATCGGGGCGTGCTAGTCTTGATTCGCTTGACGCTGCTG: 6.92 z-score
GCCTAGCACTTAGAACTGGGGTTTCGAGTAGTGCTAGTCTTGATTCGCTTGACGCTGCTG: 1.82 z-score

Series 2 — method: universal PBM; form: double-stranded DNA, one strand shown; matrix: in vitro; tested at: not given; direction: higher = stronger binding; endpoint: E-score
Target: Sal-like protein 4, full length isoform B (SALL4, Homo sapiens, UniProt Q9UJQ4-2, residues 1-616)
Setting: 8-mer, flanks averaged, mean of replicates
GAGCATAC: 0.0916
CGGCAAAC: -0.205
CCTATCTC: -0.116
TCCACACA: -0.0629
CCTTGCAC: -0.0957
AGGATTGG: -0.0293

Series 3 — method: RNA Bind-n-Seq; form: RNA; matrix: in vitro; tested at: 200 nM; setting: whole 134-nt RNA, ends assumed; with: 150 mM LiCl; reference: input library; direction: higher = stronger binding; endpoint: log2 enrichment; each molecule: 7-deaza-guanosine replaces G
Target: Fragile X messenger ribonucleoprotein 1, C-terminal low-complexity region (Fmr1, Mus musculus, UniProt P35922)
GGGAGUUCUACAGUCCGACGAUCUUUAGACAGAAACAAGAAGCAACAGAGUCCCUUAAGUGCCAAGAGGAACUUCGAGAGCGCCUUCAUGAGGAGUCCAGGGCCAGAGAACAGUGGAAUUCUCGGGUGUCAAGG: -0.603
GGGAGUUCUACAGUCCGACGAUCCCUGUGCUACACAUCGUAUGUACCGAAUCGGGAAAAAAAGGAAAAAAAGGGAAAAAAAGGAAAGUAUUAUGUUACGCCGUUCGGAUCUGCUGGAAUUCUCGGGUGUCAAGG: -0.181
GGGAGUUCUACAGUCCGACGAUCACCAUGCAGGUGGGUAUCUUUGGGAAGUGGGGCAAGGGGGGGAUAGGGAGGGGGGUAACACUUUGGGAACAGGUGGUCCCAGGUCGUUUCUGGAAUUCUCGGGUGUCAAGG: 1.18

Further values, each from its own experiment
PhoQ, residues 284 288 289 292 302 303 TNSAEL
fold induction (PhoP, residues 12 14 15 18 19 NQAHL (Escherichia coli, UniProt P23836); Sort-seq, item: YFP reporter; E. coli; PhoQ-PhoP variant library, with: 10 µM Mg2+; reference: high Mg2+ state, higher = stronger signaling): 1.08

A few entries again (series 1):
GCCTAGCACGACGGTTTCGACTATCGGGGCGTGCTAGTCTTGATTCGCTTGACGCTGCTG: 6.92 z-score
